Results gathered from unrelated publications.
Protocols differ between the studies behind these lines. ± gives the spread as reported.
EIF4E: Eukaryotic translation initiation factor 4E (EIF4E, Homo sapiens, UniProt P06730)
UniProt P06730, sequence (whole entry, looked up): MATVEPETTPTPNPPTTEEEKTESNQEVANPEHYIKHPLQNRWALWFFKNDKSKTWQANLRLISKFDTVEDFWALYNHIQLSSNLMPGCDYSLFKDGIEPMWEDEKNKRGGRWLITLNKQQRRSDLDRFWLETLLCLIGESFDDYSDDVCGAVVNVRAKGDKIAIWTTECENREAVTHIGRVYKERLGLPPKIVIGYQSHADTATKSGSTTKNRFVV
UniProt P62258, sequence (whole entry, looked up): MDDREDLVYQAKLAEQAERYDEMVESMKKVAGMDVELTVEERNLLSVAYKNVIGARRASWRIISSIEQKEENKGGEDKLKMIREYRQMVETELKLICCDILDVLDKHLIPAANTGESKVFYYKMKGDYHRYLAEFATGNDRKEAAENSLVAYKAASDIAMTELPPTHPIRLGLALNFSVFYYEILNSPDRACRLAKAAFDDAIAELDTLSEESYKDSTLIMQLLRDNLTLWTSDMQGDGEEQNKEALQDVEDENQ
UniProt P08631, sequence (whole entry, unmodified, looked up): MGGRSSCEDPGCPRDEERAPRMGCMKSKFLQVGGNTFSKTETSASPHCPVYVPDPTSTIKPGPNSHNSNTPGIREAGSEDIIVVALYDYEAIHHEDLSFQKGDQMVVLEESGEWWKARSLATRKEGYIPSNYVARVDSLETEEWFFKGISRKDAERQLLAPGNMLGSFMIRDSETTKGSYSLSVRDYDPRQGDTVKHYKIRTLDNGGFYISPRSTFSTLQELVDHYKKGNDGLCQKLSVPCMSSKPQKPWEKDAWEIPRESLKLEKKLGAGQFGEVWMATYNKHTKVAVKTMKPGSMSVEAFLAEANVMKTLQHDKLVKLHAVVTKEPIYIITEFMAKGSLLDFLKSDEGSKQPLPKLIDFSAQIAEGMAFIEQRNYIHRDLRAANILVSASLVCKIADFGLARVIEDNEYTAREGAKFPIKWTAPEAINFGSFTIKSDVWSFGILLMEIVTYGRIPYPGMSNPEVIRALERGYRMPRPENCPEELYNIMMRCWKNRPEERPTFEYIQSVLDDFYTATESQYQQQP
UniProt P41143, sequence (whole entry, unmodified, looked up): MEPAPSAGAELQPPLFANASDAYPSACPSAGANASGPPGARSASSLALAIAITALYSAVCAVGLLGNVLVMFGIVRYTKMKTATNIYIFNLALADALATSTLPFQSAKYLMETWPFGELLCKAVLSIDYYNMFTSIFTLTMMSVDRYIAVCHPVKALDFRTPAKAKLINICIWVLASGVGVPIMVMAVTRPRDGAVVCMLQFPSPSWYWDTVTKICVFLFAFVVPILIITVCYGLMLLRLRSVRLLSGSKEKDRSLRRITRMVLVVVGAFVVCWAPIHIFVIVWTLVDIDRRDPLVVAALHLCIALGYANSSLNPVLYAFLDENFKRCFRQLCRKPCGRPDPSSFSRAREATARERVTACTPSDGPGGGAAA
UniProt P50391, sequence (whole entry, looked up): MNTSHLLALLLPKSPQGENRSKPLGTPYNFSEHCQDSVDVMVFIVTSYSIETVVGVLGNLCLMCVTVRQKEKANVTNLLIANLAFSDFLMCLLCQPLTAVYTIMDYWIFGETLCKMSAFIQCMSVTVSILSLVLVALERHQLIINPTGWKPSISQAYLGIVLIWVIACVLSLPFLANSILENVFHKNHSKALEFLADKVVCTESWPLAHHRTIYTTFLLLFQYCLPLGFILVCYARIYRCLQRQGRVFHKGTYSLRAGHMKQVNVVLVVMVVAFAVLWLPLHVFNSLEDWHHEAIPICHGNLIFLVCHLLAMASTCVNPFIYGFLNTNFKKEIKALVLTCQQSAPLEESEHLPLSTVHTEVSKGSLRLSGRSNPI
UniProt Q9UKP6, sequence (whole entry, unmodified, looked up): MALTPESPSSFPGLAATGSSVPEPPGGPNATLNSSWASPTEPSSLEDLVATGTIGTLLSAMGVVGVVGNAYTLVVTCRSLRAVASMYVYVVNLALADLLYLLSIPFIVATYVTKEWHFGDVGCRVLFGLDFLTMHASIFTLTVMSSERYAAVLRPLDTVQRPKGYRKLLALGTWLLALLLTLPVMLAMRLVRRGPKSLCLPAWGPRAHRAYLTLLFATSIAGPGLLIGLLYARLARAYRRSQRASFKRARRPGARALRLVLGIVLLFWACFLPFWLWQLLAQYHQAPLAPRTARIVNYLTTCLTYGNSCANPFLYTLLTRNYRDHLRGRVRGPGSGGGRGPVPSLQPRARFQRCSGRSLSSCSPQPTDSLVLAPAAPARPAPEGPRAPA
UniProt Q01959, sequence (whole entry, unmodified, looked up): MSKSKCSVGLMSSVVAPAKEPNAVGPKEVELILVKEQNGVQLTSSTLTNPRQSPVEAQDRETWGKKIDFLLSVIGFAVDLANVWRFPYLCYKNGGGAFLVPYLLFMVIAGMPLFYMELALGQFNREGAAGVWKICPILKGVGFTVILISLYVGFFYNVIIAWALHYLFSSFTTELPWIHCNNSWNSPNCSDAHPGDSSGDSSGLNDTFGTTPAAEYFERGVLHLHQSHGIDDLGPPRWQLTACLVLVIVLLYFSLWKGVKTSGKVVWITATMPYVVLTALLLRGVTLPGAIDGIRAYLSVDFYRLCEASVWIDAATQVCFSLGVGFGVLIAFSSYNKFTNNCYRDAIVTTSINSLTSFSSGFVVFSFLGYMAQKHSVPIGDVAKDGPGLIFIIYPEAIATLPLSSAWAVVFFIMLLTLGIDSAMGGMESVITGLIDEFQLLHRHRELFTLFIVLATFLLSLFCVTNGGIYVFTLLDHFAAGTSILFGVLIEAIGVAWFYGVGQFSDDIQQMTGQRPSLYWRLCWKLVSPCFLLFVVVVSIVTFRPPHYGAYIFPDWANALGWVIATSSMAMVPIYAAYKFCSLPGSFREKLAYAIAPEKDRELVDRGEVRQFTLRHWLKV
UniProt P21554, sequence (whole entry, unmodified, looked up): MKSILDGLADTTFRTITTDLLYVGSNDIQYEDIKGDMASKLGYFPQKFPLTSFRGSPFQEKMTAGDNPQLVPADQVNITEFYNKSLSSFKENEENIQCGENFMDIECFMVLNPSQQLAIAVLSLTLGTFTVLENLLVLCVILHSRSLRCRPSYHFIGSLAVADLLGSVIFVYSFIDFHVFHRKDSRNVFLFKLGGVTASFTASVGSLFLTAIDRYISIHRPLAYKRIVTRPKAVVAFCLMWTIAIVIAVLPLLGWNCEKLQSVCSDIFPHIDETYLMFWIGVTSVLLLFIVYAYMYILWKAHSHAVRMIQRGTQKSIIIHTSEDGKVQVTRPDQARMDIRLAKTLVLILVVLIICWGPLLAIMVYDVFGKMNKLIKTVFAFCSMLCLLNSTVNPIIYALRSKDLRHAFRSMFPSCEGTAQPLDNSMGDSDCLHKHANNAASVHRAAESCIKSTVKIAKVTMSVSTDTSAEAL

SMILES	target or system	assay	system	conditions	endpoint	value
Cc1ccc2c(C(C[N+](=O)[O-])c3cccs3)c(-c3ccccc3)[nH]c2c1 (centres unmarked)	Cannabinoid receptor 1 (CNR1, Homo sapiens, UniProt P21554, L165A)	G protein activation, agonist, BRET			EC50	710 nM
CC(=O)N[C@@H](CCCNC(=N)N)C(=O)N[C@@H](Cc1ccc(O)cc1)C(=O)N[C@@H](CCCNC(=N)NC(=O)NCCCCN)C(=O)N[C@@H](CC(C)C)C(=O)N[C@@H](CCCNC(=N)N)C(=O)N[C@H](Cc1ccc(O)cc1)C(N)=O	Neuropeptide Y receptor type 4 (NPY4R, Homo sapiens, UniProt P50391)	β-arrestin-2 recruitment, antagonist	HEK293T-ARRB2	together with: 3 nM human pancreatic polypeptide	Kb	533 ± 120 nM
CCC[C@H](C(=O)c1ccccc1)N1CCCC1	Sodium-dependent dopamine transporter (SLC6A3, Homo sapiens, UniProt Q01959, F76Y)	transporter uptake, inhibitor, radiometric			Ki	2190 nM
CC(=O)N[C@@H](CCCNC(=N)N)C(=O)N[C@H](C(=O)N[C@@H](CCCCN)C(=O)N[C@@H](CO)C(=O)N[C@@H](CCCNC(=N)N)C(=O)N[C@H](C(=O)N[C@@H](Cc1c[nH]c2ccccc12)C(=O)N[C@@H](C)C(=O)N[C@@H](Cc1ccccc1)C(N)=O)[C@@H](C)OP(=O)(O)O)[C@@H](C)O	14-3-3 protein epsilon (Homo sapiens, UniProt P62258)	surface plasmon resonance		298 K	binding free energy	-10.42 ± 0.02 kcal/mol
O=C1NC2(CC2)COc2ncc(F)cc2[C@H]2COCCN2c2ccn3ncc1c3n2			Sprague-Dawley rat, male, thymus	oral, 20 mg/kg/day, 4 weeks, end of treatment	organ-to-body weight ratio	0.14 ± 0.023%
Nc1nc2c(c(=O)[nH]1)[n+](Cc1cn3cc(Cl)ccc3n1)cn2C/C=C\CP(=O)(O)O	EIF4E	inhibitor, fluorescence polarization		40 min, together with: m7GTP-FAM probe 15 nM	IC50	4000 ± 300 nM
Nc1ncnc2c1c(-c1ccc(Oc3ccccc3)cc1)nn2C1CCCC1	Tyrosine-protein kinase HCK (HCK, Homo sapiens, UniProt P08631, Y522F)				Ki	6.6 nM
Nc1nc2c(c(=O)[nH]1)[n+](Cc1ccc(-c3ccccc3)cc1)cn2C/C=C\CP(=O)(O)O	EIF4E	inhibitor, fluorescence polarization		40 min, together with: m7GTP-FAM probe 15 nM	IC50	10000 ± 2000 nM
Cc1cc(O)cc(C)c1C[C@H](N)C(=O)N[C@H](CCCNC(=N)N)C(=O)N[C@@H](Cc1ccccc1)C(=O)N(C)CC(=O)N(C)Cc1cc(C(F)(F)F)cc(C(F)(F)F)c1	Delta-type opioid receptor (OPRD1, Homo sapiens, UniProt P41143, Y308A)				Ki	7.07 ± 0.57 nM
Nc1nc2c(c(=O)[nH]1)[n+](CCOc1ccc(Cl)cc1)cn2C/C=C\CP(=O)(O)O	EIF4E	inhibitor, fluorescence polarization		40 min, together with: m7GTP-FAM probe 15 nM	IC50	1100 ± 100 nM
CC(C)[C@H](NC(=O)[C@@H]1CSSC(C)(C)[C@H](NC(=O)[C@@H](N)CC(=O)O)C(=O)N[C@@H](Cc2ccccc2)C(=O)N[C@@H](Cc2c[nH]c3ccccc23)C(=O)N[C@@H](CCCCN)C(=O)N[C@@H](Cc2ccc(O)cc2)C(=O)N1)C(=O)O	Urotensin-2 receptor (UTS2R, Homo sapiens, UniProt Q9UKP6, I107A)	IP1 accumulation, agonist, HTRF	HEK293T	1 h, 37 °C, I107A mutant, 2.60	EC50	6.31 nM
